Measurements from different studies.
Numbered parts are unrelated; each lists some results of a single study. “And” joins repeats or separate records; there may be more than shown.

Block 1
Cell line: mouse MPNST tumor cells
Method: high-content immunofluorescence imaging
Measured: nuclear SOX9
Tested at: 10 µM
Time: 12 h
Notes: mean of 2 replicates
Relative to: DMSO control
Direction: higher = more nuclear SOX9
| Structure (SMILES) | nuclear SOX9 intensity |
| --- | --- |
| CCCCCCCCCCC[C@@H](C[C@@H]1OC(=O)[C@H]1CCCCCC)OC(=O)[C@H](CC(C)C)NC=O | 102 % of DMSO |
| CC(Oc1c(Cl)cccc1Cl)C1=NCCN1 (stereo not drawn) | 108 % of DMSO |
| CNCCCC12CCC(c3ccccc31)c1ccccc12 | 210 % of DMSO |
| Clc1cccc(Cl)c1/C(=C/n1cncn1)OC1CCCCCC1 | 110 % of DMSO |
| CCn1c(-c2nonc2N)nc2cncc(CNC3CCNCC3)c21 | 98.6 % of DMSO |
| CCCc1cc(C(N)=S)ccn1 | 102 % of DMSO |
| COc1ccc(S(=O)(=O)N2CCC[C@H]2C(=O)Nc2cc(C)cc(C)c2)cc1 | 123 % of DMSO |
| O=C(O)C1CN(Cc2ccc(-c3nc4cc(Cc5ccccc5F)ccc4s3)c(F)c2)C1 | 98.1 % of DMSO |
| Nc1cccc(-c2cc3c(Oc4cccc(O)c4)ncnc3[nH]2)c1 | 249 % of DMSO |
| CC(=O)O[C@]1(C(C)=O)CC[C@H]2[C@@H]3C=C(Cl)C4=CC(=O)[C@@H]5C[C@@H]5[C@]4(C)[C@H]3CC[C@@]21C | 97.4 % of DMSO |
| Cc1oc(-c2ccccc2)nc1CCOc1ccc(CC2SC(=O)NC2=O)c2sccc12 (stereo not drawn) | 117 % of DMSO |
| CN(C)CC/C=C1/c2ccccc2COc2ccc(CC(=O)O)cc21 | 95.9 % of DMSO and 89.1 % of DMSO |
| Nc1ccc(-c2ccc3ncc4ccc(=O)n(-c5cccc(C(F)(F)F)c5)c4c3c2)cn1 | 154 % of DMSO |

Block 2
Target: Receptor tyrosine-protein kinase erbB-2 (ERBB2, Homo sapiens, UniProt P04626)
Observed: enzyme activity
Action: inhibitor
Tested at: 0.5 µM
Relative to: control
| Compound | remaining activity [%] |
| --- | --- |
| COc1cccc(-c2cc(=O)c3ccccc3o2)c1N | 106 |
| O=C1NC(=O)c2c1c1c3ccccc3[nH]c1c1[nH]c3cc(Br)ccc3c21 | 101 |
| O=C1Nc2ccc(Br)cc2/C1=C/c1cc2c([nH]1)CCCC2 | 115 |
| O=Nc1c(-c2c(O)[nH]c3cc(Br)ccc23)[nH]c2ccccc12 | 102 |
| c1ccc(-c2n[nH]c3c2oc2ccccc23)cc1 | 104 |
| Cc1cc(Nc2cc(N3CCN(C)CC3)nc(Sc3ccc(NC(=O)C4CC4)cc3)n2)[nH]n1 | 102 |
| O=C(c1cc2cc(O)ccc2[nH]1)c1cc2cc(O)ccc2[nH]1 | 113 |
| CCCNC(=O)Nc1ccc(Oc2ncnc3cc(OC)c(OC)cc23)cc1Cl | 116 |
| CCCCc1c(-c2ccc(OC)cc2)[nH]c2nccnc12 | 96.4 |
| O=C1NC(=O)c2c1c1c3ccccc3[nH]c1n1cncc21 | 109 |
| CN1CCN(c2ccc3nc(-c4c(N)c5c(F)cccc5[nH]c4=O)[nH]c3c2)CC1 | 106 |
| O=C1Nc2ccccc2/C1=C\c1c(Cl)[nH]c2ccccc12 | 97.3 |
| c1ccc2c(-c3ccncc3)c[nH]c2c1 | 95.6 |

Block 3
Organism: Sarcocystis neurona
Observed: parasite growth
Tested at: 10 µM
Time: 96 h
Notes: second screen
Relative to: untreated
| SMILES | log2 fold change |
| --- | --- |
| CN(C)CCOC(c1ccccc1)c1ccccc1 | 0.68 |
| C[C@@](Cc1ccc(O)c(O)c1)(NN)C(=O)O | 0.42 |
| CN(C/C=C/C#CC(C)(C)C)Cc1cccc2ccccc12 | 0.65 |
| CN(C)CCOc1ccc(/C(=C(/CCCl)c2ccccc2)c2ccccc2)cc1 | 0.41 |
| O=C(O)COCCN1CCN([C@H](c2ccccc2)c2ccc(Cl)cc2)CC1 | 0.55 |
| CN(CCOc1ccc(CC2SC(=O)NC2=O)cc1)c1ccccn1 (stereo not drawn) | -0.13 |
| CN(C)CCN(Cc1ccccc1)c1ccccn1 | 0.39 |
| CCOC(=O)[C@H](CCc1ccccc1)N[C@@H](C)C(=O)N1CCC[C@H]1C(=O)O | 0.11 |
| C[C@@H]1C[C@H]2[C@@H]3CCC4=CC(=O)C=C[C@]4(C)[C@@]3(F)[C@@H](O)C[C@]2(C)[C@H]1C(=O)CO | -0.04 |
| COC(=O)C1=C(C)NC(C)=C(C(=O)OC)C1c1ccccc1[N+](=O)[O-] | 0.27 |

Block 4
Target: 5-hydroxytryptamine receptor 1D (HTR1D, Homo sapiens, UniProt P28221)
UniProt P28221, sequence (whole entry, looked up): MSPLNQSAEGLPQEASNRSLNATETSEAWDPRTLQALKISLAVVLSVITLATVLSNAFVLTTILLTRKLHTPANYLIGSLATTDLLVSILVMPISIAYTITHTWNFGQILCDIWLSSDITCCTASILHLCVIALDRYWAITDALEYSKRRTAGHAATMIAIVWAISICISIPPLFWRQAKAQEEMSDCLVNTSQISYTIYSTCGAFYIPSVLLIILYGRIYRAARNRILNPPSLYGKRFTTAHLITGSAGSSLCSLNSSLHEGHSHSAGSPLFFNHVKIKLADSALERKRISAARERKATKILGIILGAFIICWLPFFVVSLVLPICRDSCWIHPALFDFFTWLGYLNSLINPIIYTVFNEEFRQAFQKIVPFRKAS
Observed: ligand displacement
Method: radioligand
Tested at: 10 µM
| SMILES | inhibition |
| --- | --- |
| CS(=O)(=O)c1cc(C2(NC(=O)c3cncc4c3cnn4-c3ccc(F)cc3)CC2)ccn1 | 14.5% |
| COc1cc(-c2cn(C3CCc4ccccc4N(CC(F)(F)F)C3=O)nn2)ccc1-n1ccc(C)n1 (stereo not drawn) | 11.3% |
| Nc1cnc(N2CCc3cc(S(=O)(=O)Nc4c(F)cc(Cl)cc4F)cc(N4CCCC4=O)c32)nc1 | 9.24% |
| C[C@@H](c1cccc(C#N)c1)n1cc(Cl)cc(C(N)=O)c1=N | 3.77% |
| Cn1cncc1[C@](O)(COc1ccc(C#N)cc1-c1ccc(OC(F)(F)F)cc1)c1ccc(C#N)cc1 | -0.932% |
| CNC(=O)c1ccc(Nc2ncc(C(F)(F)F)c(NCc3nccnc3N(C)S(C)(=O)=O)n2)cc1 | -15.2% |
| CC(C)(O)c1cncc(-c2nc3ccc(F)cc3n2C2CC2)c1 | 0.75% |
| CCC(=NO)C(C)=Cc1ccc(F)c(C)c1 | 4.54% |
| COCCOc1nc(-c2ccc(Cl)nc2)nc2c1CN(C(=O)c1ncn3ccccc13)CC2 | 8.09% |
| Cc1cc(Nc2nccc(C)n2)cc(-c2cnc([C@@]3(O)CC[C@H](C(=O)O)C(C)(C)C3)s2)c1 | 2.65% |
| Cc1cc(-n2nc(Cc3cc(F)cc(C(F)(F)F)c3)nc2C)ccc1C(N)=O | 12.5% |
| CN(C)C(=O)Cn1cc(-c2nc([C@@](C)(c3ccc(-c4cnc(N)nc4)cc3)C3CC3)no2)cn1 | -5.95% |
| CCC(=O)N[C@@H]1CC[C@H](C(=O)N(C)c2ccc(-c3nc4ccccc4o3)cc2)C1 | -8.27% |
| Cc1nc(C2CCN(C(=O)c3ccc(OC(F)(F)F)cc3N)CC2)c2ncc(N3CCN(C)CC3)cc2n1 | -2.17% |
| CO[C@H]1CC[C@H](CNc2ccc(S(=O)(=O)NC(=O)c3ccc(N4CCN(CC5=C(c6ccc(Cl)cc6)CC(C)(C)CC5)CC4)cc3Oc3cnc4[nH]ccc4c3)cc2[N+](=O)[O-])CC1 | 8.17% |
| C[C@@]1(Cc2ccc(C#N)cc2)C(=O)N(c2cc(Cl)cc(Cl)c2)c2ncc(C(=O)NC3(c4nc(C5CCC5)no4)CC3)n21 | 22.4% |
| COc1cccc(NC(=O)c2nc3scc(CN(C)Cc4ccccc4)c3c(=O)[nH]2)c1 | -0.959% |
| CCOc1cc(N2C3COCC2CN(C(=O)[C@H]2C[C@H](O)CN2c2ccc(Cl)cc2)C3)ccc1Cl | -2.08% |
